Measurements gathered from unrelated publications.
Numbered parts are unrelated; each lists some results of a single study.

Sample 1
Target: RNA binding protein fox-1 homolog 2, RRM domain, GST-SBP tag (RBFOX2, Homo sapiens, UniProt O43251-10, residues 100-194)
Technique: RNA Bind-n-Seq
Form: RNA
Sample: in vitro
Concentration: 365 nM
Notes: natural RNA segment, single round, ends assumed
Baseline: no-protein control
Reading: higher = stronger binding
Endpoint: RBNS enrichment (R)
All sequences stand within: GGGAGUUCUACAGUCCGACGAUC … UGGAAUUCUCGGGUGCCAA
Target sequence (chain): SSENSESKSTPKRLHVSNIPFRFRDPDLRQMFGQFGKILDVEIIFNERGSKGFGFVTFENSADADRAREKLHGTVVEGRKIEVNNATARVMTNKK
ACGCUGCUCAUGUCCCCUCUCCCUCCAUCUGAGAAGCAGAAGCGGCCAGUGUGCCUCAAGGCCCAGGAUGGAAGACUCUCAACUCAUUCUUGCCUUACUACAGUGAUGGU: 0.236
GCAUCGAUCGAAGCAAAAGGUGAUGUGUGUAUAUCAGAAAAAAGAAAUUAACUGUAUAUCAUUCCAGUACAUUCCGUUGUACAUUUUAGUCUCCGUUUACUUUCUCUUCA: 0.395
UCACUGAUUGAGAUUACUUUGUAAGUAGCUGUUCAGAAGAAUAAAAUAUGACUGUUUUAGGGACUAGACCAUGUGCUUUUUUAACACUUAUAUAUAUAAUGGUCUAUUUG: 0.436
CGGGGACACACACGGCUGAACCUUCCCCACGGGACCCCGAGUGGCCCCACCCUGCCUCUUGUCCUGUUGCUAUGUCCUGGUCCUUCUUCCCGCUCUGGGCUUCUCUCAAC: 0.813
UGGUAUUCUGAGAGUUGCUCUGUAUUCUGGGUUCUGAAGAUUAUUUGAAAAAUAACUCCUACUACAUUGAAAUGCAGACUUAAAAAUUUAAACAUUGGAUUAGGCAGUCA: 0.492
UCCAAGGAAUCUCUUCUAUUGAGGGCUAAAGAUAAAGAAUUUGGCACACAAAAAAAAUGCAGACAUCCUUGUGAAUUUUGAGUGCUUAUGGGGUCAUCUGGUUAUUUAGG: 0.571
UUGGGUUGUGUUUUGUGUCUGAGUCCCCUCCCUCAUCCCUUAGGGUCCAGAAGAGCAAUGGAGGAAGUGACAGCUAAUGUUGCAGUUCUUAUUGUAUGGCAUAGGACUGG: 0.854
CCUGAUGGUGUCUGUUCCCACAAUAUCCUUCUAGUCUGCAUCGUGAAGUGGCUUAGGCCAAAGCUUCCUGUGUGAUGACGCACGUCCGAGACUGUUCCAUCUCAUUCCUC: 0.312
UAUACCUCCUGCUGGUAUCAGGUGUCAGAAGGGACAUUUGUUAGAUGCCUUACUUGACCUUCCUAGGAACUGUUGAUCAGCUACCUCUUUCUGUCAAGUGUUGGUAGAAU: 0.315

Sample 2
Target: Ras GTPase-activating protein-binding protein 1, C-terminal RGG region (G3BP1, Homo sapiens, UniProt Q13283)
UniProt Q13283, sequence (whole entry, looked up): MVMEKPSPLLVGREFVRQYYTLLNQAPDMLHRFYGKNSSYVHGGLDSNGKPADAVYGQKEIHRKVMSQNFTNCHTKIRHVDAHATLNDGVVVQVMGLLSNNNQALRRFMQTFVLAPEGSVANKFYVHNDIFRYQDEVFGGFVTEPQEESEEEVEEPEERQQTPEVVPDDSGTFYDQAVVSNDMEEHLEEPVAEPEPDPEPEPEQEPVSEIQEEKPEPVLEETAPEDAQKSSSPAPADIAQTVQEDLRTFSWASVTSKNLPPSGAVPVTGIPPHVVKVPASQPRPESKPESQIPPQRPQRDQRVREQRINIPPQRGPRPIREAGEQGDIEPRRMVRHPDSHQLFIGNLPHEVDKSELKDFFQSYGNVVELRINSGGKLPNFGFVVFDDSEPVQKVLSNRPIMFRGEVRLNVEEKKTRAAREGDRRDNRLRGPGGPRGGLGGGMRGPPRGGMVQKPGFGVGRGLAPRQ
Technique: RNA Bind-n-Seq
Form: RNA
Sample: in vitro
Concentration: 1 µM
Notes: whole 134-nt RNA, ends assumed
Added: 150 mM KCl
Baseline: input library
Reading: higher = stronger binding
Endpoint: log2 enrichment
All sequences stand within: GGGAGUUCUACAGUCCGACGAUC … UGGAAUUCUCGGGUGUCAAGG
UCAAGUCCUGUGCUACACAUCGUAUGUACCGAAUCGGGUUUUUGGGAGGGAGGGAAAGUAUUAUGUUACGCCGUUCGGAUCUGCACUUCC: 1.31
UGGCCUUAUCACUCCUGGAGGCUUUUCAUCAGUGCCUGCUGGAAUGGAGACCCCUGAACUCAUUGAGCUGAGGAAGAAGAAGAUUGAGGA: -2.18
CUGUGCUACACAUCGUAUGUACCGAAUCGGGAAAAAAAGGGAAAAAAAGGGAAAAAAAGGGGAAAGUAUUAUGUUACGCCGUUCGGAUCU: -1.27
UGUACUGAUGACAGCUAAUCUCUGAAUCUUUUUCCUCCAGGAUGUUCCUUCAGGAGGAAGCAGCACUAAAAGCACUCUGAGUCAAGAUGA: -1.69
CCUGUGCUACACAUCGUAUGUACCGAAUCGGGAAAAAAAGGGAAAAAGGGUUUUUUUGGGAAAGUAUUAUGUUACGCCGUUCGGAUCUGC: -1.58
CUCAAGUCCUGUGCUACACAUCGUAUGUACCGAAUCGGGAAGGAAGGGAAGGGAAAGUAUUAUGUUACGCCGUUCGGAUCUGCACUUCCA: -0.637

Sample 3
Target: Sal-like protein 4, full length isoform B (SALL4, Homo sapiens, UniProt Q9UJQ4-2, residues 1-616)
Technique: universal PBM
Form: double-stranded DNA, one strand shown
Sample: in vitro
Concentration: not given
Notes: 8-mer, flanks averaged, mean of replicates
Reading: higher = stronger binding
Endpoint: E-score
AGATTGGC: -0.157
GGCCTGAC: -0.266
CATCACCA: 0.101
CTTCATAA: 0.295
CCCGTTGC: -0.232
CCTCTGCC: -0.163

Mixed results
PhoQ, residues 284 288 289 292 302 303 TGYLSA
fold induction (PhoP, residues 12 14 15 18 19 LWHSL (Escherichia coli, UniProt P23836); Sort-seq, measured: YFP reporter; E. coli; PhoQ-PhoP variant library, added: 10 µM Mg2+; baseline: high Mg2+ state, higher = stronger signaling): 6.23
